Experimental data from different studies.
Parts stem from different laboratories: compare values within a part only. Several values in a cell are separate wells, animals, samples, runs or records.
Chain of UniProt Q06187 (whole entry, looked up): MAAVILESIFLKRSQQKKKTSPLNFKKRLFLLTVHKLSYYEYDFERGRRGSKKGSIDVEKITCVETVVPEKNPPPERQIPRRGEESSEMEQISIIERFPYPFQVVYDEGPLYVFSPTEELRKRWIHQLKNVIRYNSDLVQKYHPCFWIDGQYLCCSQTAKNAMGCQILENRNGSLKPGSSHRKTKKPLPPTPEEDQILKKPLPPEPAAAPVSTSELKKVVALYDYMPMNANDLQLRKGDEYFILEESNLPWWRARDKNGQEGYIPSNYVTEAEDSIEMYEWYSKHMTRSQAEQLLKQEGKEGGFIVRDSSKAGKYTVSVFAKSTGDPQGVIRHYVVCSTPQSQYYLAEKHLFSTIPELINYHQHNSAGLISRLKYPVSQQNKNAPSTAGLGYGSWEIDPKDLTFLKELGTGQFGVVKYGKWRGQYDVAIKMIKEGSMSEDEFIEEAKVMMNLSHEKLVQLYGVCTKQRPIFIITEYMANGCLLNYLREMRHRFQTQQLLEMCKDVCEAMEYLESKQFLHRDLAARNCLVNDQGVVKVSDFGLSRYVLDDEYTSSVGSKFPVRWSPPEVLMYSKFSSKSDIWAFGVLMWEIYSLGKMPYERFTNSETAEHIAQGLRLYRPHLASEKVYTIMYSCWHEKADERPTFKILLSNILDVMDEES
Chain of UniProt Q9BRS2 (whole entry, looked up): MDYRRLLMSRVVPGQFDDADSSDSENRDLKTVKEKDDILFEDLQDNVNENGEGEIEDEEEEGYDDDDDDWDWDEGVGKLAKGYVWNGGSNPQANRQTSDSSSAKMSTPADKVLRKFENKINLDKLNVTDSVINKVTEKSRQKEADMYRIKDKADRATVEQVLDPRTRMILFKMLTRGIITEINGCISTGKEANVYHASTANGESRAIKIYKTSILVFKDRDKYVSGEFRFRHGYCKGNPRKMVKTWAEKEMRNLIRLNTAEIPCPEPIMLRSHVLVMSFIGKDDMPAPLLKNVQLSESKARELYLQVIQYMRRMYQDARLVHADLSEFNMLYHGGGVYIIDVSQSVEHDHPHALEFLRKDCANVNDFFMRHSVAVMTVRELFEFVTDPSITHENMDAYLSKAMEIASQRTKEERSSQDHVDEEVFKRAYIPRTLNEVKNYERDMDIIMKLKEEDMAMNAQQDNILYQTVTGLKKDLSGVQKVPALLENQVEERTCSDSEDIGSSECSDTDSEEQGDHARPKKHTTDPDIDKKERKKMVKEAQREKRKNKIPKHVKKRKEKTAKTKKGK
Chain of UniProt P48729 (whole entry, looked up): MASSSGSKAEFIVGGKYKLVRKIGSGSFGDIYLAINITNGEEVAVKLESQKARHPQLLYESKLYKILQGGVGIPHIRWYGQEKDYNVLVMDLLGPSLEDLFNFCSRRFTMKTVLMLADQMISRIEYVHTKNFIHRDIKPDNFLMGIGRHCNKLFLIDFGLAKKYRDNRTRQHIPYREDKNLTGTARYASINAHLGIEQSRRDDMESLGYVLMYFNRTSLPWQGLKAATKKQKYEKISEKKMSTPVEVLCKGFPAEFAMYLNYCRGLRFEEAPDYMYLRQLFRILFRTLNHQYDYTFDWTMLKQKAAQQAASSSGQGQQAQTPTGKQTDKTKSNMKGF
Chain of UniProt Q8TDX7 (whole entry, looked up): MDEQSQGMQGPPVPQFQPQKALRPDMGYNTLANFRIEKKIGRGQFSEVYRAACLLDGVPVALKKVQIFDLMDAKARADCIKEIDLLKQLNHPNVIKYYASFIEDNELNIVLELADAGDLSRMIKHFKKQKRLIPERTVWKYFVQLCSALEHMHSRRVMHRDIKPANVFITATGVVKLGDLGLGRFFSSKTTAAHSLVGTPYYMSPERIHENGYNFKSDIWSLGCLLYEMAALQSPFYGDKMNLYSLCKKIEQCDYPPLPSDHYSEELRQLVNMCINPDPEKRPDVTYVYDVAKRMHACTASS
Chain of UniProt Q13470 (whole entry, looked up): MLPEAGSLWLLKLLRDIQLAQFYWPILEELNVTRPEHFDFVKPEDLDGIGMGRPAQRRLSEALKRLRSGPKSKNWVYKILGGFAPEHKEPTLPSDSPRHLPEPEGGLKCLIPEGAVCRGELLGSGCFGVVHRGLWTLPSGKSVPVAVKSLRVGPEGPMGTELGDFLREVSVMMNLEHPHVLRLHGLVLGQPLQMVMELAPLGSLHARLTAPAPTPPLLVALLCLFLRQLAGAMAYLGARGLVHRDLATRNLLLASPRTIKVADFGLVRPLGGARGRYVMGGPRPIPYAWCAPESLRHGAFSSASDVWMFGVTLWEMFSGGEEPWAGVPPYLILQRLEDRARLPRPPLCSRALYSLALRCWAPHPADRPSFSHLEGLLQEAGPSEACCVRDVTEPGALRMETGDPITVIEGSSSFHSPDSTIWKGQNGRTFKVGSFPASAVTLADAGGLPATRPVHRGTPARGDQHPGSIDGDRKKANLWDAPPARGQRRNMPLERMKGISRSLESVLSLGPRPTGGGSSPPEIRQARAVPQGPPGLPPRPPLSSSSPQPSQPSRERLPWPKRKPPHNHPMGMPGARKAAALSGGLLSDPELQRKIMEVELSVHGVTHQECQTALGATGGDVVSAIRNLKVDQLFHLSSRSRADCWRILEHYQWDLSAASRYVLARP
Chain of UniProt P49841 (whole entry, looked up): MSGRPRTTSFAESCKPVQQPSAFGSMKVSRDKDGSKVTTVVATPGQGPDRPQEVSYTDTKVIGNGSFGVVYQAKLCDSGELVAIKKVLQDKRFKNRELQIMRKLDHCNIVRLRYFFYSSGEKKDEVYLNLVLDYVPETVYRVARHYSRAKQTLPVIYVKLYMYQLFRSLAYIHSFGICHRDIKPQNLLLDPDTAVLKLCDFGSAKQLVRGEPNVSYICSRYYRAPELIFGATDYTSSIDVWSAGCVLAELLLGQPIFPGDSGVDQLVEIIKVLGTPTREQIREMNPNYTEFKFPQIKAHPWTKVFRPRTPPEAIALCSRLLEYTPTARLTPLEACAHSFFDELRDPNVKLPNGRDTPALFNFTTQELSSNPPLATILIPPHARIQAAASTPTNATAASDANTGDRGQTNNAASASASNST

Study 1
SMILES: Cn1cc(-c2cccc(CN3CCC4(CC3)COc3c4ccc4c3CN([C@H]3CCC(=O)NC3=O)C4=O)c2)cn1
Route: oral
system | conditions | oral bioavailability
cynomolgus monkey | 3 mg/kg | 42.8% and 43.5% and 64%
rat | 3 mg/kg, approximate dose | 116% and 153% and 83.3%
rat, plasma | 2.98 mg/kg, group mean | 118%

Study 2
SMILES: CC[C@@]1(c2ccccc2)C2=C(CC(C)(C)CC2=O)Nc2n[nH]cc21
Concentration: 1 µM
target | assay | how to read | remaining binding [%]
PRKACA (Homo sapiens, UniProt P17612) | binding, competition with immobilised ligand | – | 100
GSK3B (Homo sapiens, UniProt P49841) | kinase binding, KINOMEscan | baseline: DMSO control | 54
RIOK1 (Homo sapiens, UniProt Q9BRS2) | binding, competition with immobilised ligand | – | 100
WNK2 (Homo sapiens, UniProt Q9Y3S1) | binding, competition with immobilised ligand | – | 100
TNK1 (Homo sapiens, UniProt Q13470) | kinase binding, KINOMEscan | baseline: DMSO control | 100
BTK (Homo sapiens, UniProt Q06187) | binding, competition with immobilised ligand | – | 97
CSNK1A1 (Homo sapiens, UniProt P48729) | kinase binding, KINOMEscan | baseline: DMSO control | 95
NEK7 (Homo sapiens, UniProt Q8TDX7) | kinase binding, KINOMEscan | baseline: DMSO control | 100

Study 3
Structure (SMILES): NC/C(=C\F)COc1ccc(-c2cc(=O)[nH]c(=S)n2CC(N)=O)c(Cl)c1
Read-out: enzyme activity
AOC3: Amine oxidase [copper-containing] 3 (AOC3, Homo sapiens, UniProt Q16853)
Chain of UniProt Q16853 (whole entry, looked up): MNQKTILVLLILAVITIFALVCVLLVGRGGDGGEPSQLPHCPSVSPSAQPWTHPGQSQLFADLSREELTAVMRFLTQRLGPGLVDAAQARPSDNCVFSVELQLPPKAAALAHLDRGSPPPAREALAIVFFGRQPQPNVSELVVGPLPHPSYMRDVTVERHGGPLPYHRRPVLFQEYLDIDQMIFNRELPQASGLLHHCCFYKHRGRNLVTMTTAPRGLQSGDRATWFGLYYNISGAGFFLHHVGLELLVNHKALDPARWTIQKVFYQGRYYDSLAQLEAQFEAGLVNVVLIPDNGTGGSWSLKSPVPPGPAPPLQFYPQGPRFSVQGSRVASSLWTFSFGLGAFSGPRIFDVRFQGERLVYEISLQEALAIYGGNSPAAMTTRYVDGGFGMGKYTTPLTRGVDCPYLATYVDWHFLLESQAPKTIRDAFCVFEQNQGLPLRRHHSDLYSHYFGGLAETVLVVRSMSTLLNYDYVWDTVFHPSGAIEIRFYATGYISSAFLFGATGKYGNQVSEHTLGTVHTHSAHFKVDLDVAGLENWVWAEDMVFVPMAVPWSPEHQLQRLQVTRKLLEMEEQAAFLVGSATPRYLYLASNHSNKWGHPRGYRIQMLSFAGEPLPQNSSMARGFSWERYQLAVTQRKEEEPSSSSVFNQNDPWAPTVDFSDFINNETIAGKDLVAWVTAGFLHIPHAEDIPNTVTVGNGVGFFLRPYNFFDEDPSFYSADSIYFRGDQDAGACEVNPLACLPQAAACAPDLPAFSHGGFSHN
MPO: Myeloperoxidase (MPO, Homo sapiens, UniProt P05164)
Chain of UniProt P05164 (whole entry, looked up): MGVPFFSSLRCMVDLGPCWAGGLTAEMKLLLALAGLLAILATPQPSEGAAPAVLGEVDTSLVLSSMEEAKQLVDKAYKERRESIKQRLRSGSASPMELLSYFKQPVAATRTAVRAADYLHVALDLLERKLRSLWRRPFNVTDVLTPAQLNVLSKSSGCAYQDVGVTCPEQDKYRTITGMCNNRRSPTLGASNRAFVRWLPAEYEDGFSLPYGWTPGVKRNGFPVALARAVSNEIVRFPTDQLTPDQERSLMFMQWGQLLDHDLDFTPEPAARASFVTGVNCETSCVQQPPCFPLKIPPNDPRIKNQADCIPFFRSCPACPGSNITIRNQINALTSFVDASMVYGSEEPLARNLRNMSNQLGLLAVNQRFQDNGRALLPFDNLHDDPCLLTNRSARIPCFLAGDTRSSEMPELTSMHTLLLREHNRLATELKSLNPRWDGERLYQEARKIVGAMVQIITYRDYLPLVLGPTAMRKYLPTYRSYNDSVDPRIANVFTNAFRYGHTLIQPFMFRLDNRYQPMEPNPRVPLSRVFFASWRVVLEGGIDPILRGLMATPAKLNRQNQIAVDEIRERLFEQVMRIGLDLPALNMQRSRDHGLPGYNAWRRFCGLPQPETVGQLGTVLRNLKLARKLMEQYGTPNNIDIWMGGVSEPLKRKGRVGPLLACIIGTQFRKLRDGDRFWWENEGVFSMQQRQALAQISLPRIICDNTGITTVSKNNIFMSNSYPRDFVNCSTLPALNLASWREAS
target | assay | conditions | inhibition
AOC3 | inhibitor, fluorescence | 3.333 µM | 99.1%
MPO | inhibitor, fluorescence | 4.6 nM | -5.88%
MPO | inhibitor, fluorescence | 0.3704 µM | 74.7%
MPO | inhibitor, fluorescence | 1.5 nM | -9.27%
MPO | inhibitor, fluorescence | 800 pM | -7.48% and -2.67%
AOC3 | inhibitor, fluorescence | 1.111 µM | 95%
MPO | inhibitor, fluorescence | 6.9 nM | -5.39% and 2.36%
AOC3 | Amplex Red H2O2 production | 1.111 µM | 95% and 95.2%

Mixed results
Structure (SMILES) | organism | assay | system | conditions | measurement | value
FC(F)(F)c1ccc(C2=NOC3(NC(c4ccccc4)=NO3)N2c2ccccc2)cc1 (centres unmarked) | Plasmodium falciparum | SYBR Gold | SB1-A6 | concentration not given, 72 h, highest tested concentration | growth inhibition | 50%

A few entries again (study 2):
target | assay | how to read | remaining binding [%]
TNK1 (Homo sapiens, UniProt Q13470) | kinase binding, KINOMEscan | baseline: DMSO control | 100
BTK (Homo sapiens, UniProt Q06187) | binding, competition with immobilised ligand | – | 97
CSNK1A1 (Homo sapiens, UniProt P48729) | kinase binding, KINOMEscan | baseline: DMSO control | 95
